Assay results pooled from the literature.
Every numbered part comes from another study and shows a few of its results, in no order.
Chain of UniProt P00519 (whole entry, unmodified, looked up): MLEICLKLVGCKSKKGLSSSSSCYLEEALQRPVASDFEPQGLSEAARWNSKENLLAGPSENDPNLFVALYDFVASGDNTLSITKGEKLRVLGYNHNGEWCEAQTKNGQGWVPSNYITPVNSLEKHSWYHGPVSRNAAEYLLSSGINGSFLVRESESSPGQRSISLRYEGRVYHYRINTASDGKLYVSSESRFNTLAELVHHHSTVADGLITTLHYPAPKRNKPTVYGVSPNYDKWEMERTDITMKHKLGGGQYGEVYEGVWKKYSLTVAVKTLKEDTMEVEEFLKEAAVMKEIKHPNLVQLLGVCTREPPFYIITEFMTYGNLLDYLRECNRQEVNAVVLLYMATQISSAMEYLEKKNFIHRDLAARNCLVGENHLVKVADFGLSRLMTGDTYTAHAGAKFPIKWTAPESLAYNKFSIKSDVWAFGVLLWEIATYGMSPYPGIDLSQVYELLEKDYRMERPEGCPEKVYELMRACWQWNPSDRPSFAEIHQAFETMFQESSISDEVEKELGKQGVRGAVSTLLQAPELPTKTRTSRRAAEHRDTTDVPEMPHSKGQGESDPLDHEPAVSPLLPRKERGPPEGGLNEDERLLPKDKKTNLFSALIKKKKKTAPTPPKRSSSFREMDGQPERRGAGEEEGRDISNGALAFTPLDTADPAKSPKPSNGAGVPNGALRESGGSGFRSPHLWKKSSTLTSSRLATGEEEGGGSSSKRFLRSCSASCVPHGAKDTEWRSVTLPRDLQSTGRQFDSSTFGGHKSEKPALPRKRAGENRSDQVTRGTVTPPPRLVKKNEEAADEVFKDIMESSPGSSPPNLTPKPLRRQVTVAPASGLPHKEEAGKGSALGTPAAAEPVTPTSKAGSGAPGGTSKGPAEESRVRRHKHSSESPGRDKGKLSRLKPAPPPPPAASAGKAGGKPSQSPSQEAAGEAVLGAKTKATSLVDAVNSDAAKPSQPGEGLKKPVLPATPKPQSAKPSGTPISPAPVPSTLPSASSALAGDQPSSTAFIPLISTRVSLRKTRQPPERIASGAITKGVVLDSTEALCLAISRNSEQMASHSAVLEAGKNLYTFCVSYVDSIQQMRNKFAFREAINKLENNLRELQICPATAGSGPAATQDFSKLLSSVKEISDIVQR
Chain of UniProt P49336 (whole entry, looked up): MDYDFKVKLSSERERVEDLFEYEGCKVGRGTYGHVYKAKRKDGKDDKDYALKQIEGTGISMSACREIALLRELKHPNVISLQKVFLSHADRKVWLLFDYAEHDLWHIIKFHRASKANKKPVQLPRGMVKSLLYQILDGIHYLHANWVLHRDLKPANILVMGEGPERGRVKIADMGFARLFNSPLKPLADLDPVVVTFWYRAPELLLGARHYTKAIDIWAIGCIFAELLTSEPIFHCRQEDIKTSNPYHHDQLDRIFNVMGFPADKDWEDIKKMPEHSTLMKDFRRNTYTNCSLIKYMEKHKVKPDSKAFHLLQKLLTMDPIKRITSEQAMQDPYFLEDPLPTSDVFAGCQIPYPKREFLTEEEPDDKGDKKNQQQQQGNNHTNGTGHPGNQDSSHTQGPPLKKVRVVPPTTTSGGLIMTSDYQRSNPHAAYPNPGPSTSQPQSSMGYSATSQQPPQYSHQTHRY
Chain of UniProt P06239 (whole entry, looked up): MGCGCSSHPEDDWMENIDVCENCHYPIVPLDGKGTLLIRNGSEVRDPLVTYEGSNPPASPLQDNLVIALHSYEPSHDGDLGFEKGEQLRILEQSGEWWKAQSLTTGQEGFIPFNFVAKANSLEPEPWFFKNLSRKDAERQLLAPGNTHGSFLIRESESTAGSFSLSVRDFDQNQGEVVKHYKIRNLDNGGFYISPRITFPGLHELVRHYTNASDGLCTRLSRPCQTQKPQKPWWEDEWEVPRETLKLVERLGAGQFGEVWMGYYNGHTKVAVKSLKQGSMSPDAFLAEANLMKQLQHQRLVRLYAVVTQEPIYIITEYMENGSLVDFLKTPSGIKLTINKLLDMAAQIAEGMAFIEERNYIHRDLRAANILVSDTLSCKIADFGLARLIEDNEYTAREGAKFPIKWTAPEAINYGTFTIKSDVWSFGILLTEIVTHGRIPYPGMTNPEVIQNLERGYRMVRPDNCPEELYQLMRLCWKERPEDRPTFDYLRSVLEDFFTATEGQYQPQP
Chain of UniProt Q96NX5 (whole entry, looked up): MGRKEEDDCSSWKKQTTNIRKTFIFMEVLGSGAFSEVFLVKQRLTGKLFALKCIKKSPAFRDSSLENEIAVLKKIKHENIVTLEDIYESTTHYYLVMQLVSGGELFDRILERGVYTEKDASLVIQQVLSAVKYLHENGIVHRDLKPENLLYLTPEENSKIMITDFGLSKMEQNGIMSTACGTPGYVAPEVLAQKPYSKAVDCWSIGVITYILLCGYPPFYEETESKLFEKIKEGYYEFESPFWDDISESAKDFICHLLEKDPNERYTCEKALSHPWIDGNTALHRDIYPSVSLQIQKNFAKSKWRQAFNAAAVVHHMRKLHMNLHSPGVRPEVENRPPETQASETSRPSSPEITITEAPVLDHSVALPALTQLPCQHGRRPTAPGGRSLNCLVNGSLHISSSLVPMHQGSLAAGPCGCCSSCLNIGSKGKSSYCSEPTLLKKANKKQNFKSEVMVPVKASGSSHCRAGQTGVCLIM
Chain of UniProt Q9UM73 (whole entry, unmodified, looked up): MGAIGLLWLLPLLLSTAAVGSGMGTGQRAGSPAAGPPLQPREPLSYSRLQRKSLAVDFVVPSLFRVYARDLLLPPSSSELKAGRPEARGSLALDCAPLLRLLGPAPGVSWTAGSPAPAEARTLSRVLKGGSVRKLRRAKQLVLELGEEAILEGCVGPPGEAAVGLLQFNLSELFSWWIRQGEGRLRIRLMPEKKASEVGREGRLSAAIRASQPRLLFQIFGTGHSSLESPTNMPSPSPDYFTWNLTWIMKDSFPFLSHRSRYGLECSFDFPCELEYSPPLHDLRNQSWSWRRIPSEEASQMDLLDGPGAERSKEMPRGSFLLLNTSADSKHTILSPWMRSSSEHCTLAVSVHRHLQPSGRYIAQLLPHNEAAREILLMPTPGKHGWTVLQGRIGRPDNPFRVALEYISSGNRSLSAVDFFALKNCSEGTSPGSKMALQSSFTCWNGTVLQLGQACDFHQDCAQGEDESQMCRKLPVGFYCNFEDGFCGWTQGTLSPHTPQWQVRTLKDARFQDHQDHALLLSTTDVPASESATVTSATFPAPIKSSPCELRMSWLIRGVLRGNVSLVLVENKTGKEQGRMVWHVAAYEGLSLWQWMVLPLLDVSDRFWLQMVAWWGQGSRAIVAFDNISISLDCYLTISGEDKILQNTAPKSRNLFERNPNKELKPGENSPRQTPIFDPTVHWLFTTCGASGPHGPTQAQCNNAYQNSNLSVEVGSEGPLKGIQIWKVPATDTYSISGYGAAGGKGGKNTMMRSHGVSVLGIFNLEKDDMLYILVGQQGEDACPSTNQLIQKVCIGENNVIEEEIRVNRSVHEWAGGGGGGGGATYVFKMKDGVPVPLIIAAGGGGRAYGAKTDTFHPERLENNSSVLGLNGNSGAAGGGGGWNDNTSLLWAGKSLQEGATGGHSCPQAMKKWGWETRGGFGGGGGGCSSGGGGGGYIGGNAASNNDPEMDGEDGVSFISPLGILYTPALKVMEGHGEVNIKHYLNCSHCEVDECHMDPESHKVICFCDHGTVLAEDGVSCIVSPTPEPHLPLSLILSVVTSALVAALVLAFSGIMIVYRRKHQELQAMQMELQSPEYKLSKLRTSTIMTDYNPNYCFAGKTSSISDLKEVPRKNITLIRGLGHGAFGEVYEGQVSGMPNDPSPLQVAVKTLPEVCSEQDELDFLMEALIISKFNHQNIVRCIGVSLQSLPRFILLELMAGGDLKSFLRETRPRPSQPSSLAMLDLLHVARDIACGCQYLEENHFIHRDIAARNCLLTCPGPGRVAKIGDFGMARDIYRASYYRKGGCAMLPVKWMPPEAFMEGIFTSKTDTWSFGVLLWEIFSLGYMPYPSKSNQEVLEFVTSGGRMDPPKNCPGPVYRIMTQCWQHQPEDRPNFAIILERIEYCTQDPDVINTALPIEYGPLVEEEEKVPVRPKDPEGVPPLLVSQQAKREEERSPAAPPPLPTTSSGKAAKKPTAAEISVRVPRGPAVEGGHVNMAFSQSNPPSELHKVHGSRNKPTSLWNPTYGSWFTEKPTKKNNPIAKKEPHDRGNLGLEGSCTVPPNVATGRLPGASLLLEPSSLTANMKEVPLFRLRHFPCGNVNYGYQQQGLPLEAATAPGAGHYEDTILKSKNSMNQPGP

Series 1
Target: Protein kinase C beta type, isoform beta-I (PRKCB, Homo sapiens, UniProt P05771)
Chain of UniProt P05771 (whole entry, looked up): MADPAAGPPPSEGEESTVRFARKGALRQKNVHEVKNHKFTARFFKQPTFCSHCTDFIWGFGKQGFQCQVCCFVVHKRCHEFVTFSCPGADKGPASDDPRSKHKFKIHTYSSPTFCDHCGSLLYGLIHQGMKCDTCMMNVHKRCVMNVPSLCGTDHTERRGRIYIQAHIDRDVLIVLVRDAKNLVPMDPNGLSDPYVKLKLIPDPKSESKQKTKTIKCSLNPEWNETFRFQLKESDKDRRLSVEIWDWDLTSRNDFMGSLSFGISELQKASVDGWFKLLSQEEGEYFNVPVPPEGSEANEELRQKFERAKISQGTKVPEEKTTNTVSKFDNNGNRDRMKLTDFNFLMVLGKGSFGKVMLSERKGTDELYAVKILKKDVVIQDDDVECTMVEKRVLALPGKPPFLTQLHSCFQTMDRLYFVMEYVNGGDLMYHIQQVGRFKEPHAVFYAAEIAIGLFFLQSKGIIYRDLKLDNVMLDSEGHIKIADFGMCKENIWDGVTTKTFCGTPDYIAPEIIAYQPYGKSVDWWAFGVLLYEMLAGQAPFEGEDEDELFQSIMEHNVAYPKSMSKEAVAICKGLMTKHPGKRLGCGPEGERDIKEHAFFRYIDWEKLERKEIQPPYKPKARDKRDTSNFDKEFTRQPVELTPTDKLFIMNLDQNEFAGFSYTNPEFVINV
Observed: enzyme activity
Mode: inhibitor
Tested at: 0.5 µM
Baseline: control
`Cc1cncc2cccc(S(=O)(=O)N3CCCN(C(=O)CN)C[C@@H]3C)c12` gave a remaining activity of 99.4%.
`Nc1ncnc2c1cnn2-c1ccccc1` has a remaining activity of 95.2%.
`COc1cc(Nc2c(C#N)cnc3cc(OCCCN4CCN(C)CC4)c(OC)cc23)c(Cl)cc1Cl` gave a remaining activity of 99.8%.
The remaining activity of `NC(=O)c1ccc(N(C(N)=O)c2c(F)cccc2F)nc1-c1ccc(F)cc1F` is reported as 86.1%.
The remaining activity of `CSc1nc(-c2ccnc(N[C@@H](C)c3ccccc3)c2)c(-c2ccc(F)cc2)[nH]1` (racemic) is reported as 92.2%.
For `Oc1ccc(Nc2nc(-c3ccc(Cl)cc3)cs2)cc1`, the remaining activity was 101%.
`CC[n+]1c(/C=C/N(C)c2ccccc2)n(-c2ccccc2)c2ccc(-c3nc4ccccc4s3)cc21` has a remaining activity of 102%.

Series 2
Target: Diamine acetyltransferase 1 (Homo sapiens, UniProt P21673)
Mode: inhibitor
Tested at: 10 µM
Baseline: control
Construct (P21673 1-171): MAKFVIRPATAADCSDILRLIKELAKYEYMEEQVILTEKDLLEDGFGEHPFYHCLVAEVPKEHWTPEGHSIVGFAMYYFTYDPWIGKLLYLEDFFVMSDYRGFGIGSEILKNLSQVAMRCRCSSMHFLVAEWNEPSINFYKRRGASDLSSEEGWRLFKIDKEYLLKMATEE
The remaining activity of `C=C(C)[C@@H]1CC[C@@]2(C)CCC(=O)C(C)=C2C1` is reported as 107%.
`Nc1nc2c(ncn2[C@@H]2O[C@H](CO)[C@@H](O)[C@H]2O)c(=O)[nH]1` has a remaining activity of 92.3%.
For `COc1cc(/C=C/CO)ccc1O[C@@H]1O[C@H](CO)[C@@H](O)[C@H](O)[C@H]1O`, the remaining activity was 101%.
`Cc1ccc(C=O)o1` gave a remaining activity of 83.1%.
`OC[C@H](O)C(O)[C@@H](O)CO` gave a remaining activity of 99.2%.
For `O=C(O)C(=O)O`, the remaining activity was 100%.
With `O=C(O)CCCCCCCCC(=O)O` the remaining activity was 103%.
The remaining activity of `CC(C)c1ccc(C=O)cc1` is reported as 92.9%.
`O=C(O)CO` gave a remaining activity of 101%.
The remaining activity of `OC[C@@H](O)[C@@H](O)[C@@H](O)[C@@H](O)CO` is reported as 93.2%.

Series 3
Host: mouse
Medium: microsomes or S9
Tested at: 2 µM
Time: 0.5 h
For `Cc1ccc(S(=O)(=O)n2cc(-c3cc(Cl)c(O)c(Cl)c3)c3c(N4CCN(C(=O)c5ccccc5)CC4)ncnc32)cc1`, the remaining compound was 14.8%.
With `CC(=O)c1ccc(NC(=O)Cn2cnc3c(nnn3-c3ccc(C)cc3)c2=O)cc1` the remaining compound was 81.3%.
`CC1=C(Br)C(=O)N(C(C)(C(N)=O)C(C)C)C1=O` (stereo not drawn) gave a remaining compound of 54.6%.
The remaining compound of `COC(=O)c1cccc2c1CN(c1cccc(C(=O)OC(C)(C)C)c1)C2=O` is reported as 78.6%.
`CC(C)n1nc(-c2ccc3nc(N)sc3c2)c2c(N)ncnc21` gave a remaining compound of 80.2%.
For `c1ccc(N(c2ccccc2)c2nc(N3CCOCC3)nc(N3CCOCC3)n2)cc1`, the remaining compound was under 1%.
`O=C(O)c1ccc2c(Br)c(O)c(C(=O)O)cc2c1` has a remaining compound of over 99%.
The remaining compound of `N#Cc1cccc(-c2cncc3cc(-c4ccccc4C(=O)O)oc23)c1` is reported as 16.1%.
`COC(=O)c1nc(N2CCN(C(=O)c3ccco3)CC2)c2scc(-c3ccc(C(=O)O)cc3)c2n1` gave a remaining compound of over 100%.
For `CCOC(=O)Cn1cnc2c1c(=O)n(C)c(=O)n2C`, the remaining compound was 0.864%.
`O=C(O)COc1ccc(C#Cc2ccc(C(=O)NCc3ccccc3)cc2)cc1` gave a remaining compound of 34.8%.
`CN(C)c1ccc(S(=O)(=O)c2ccc(Cl)cc2)cc1` has a remaining compound of 0.271%.
For `Cc1cc2occ(CC(=O)N3CCOC4(CCCOC4)C3)c2cc1C(C)C` (stereo not drawn), the remaining compound was 49.5%.
The remaining compound of `O=c1[nH]c2ccccc2c(O)c1-c1ccc(F)cc1` is reported as 97.7%.
For `CCCCN(C)Cc1cc(=O)oc2cc(C)c(O)cc12`, the remaining compound was 78.4%.

Series 4
Compound: CC(=O)c1c(NS(C)(=O)=O)c2cc(-c3ccc(Cl)cc3)c(-c3ccc(Cl)cc3Cl)nc2n(C)c1=O
Technique: competition with immobilised ligand
Tested at: 1 µM
Cyclin-dependent kinase 8 (CDK8, Homo sapiens, UniProt P49336); cell-free assay — remaining binding: 83%.
For Tyrosine-protein kinase JAK1, JH1 (JAK1, Homo sapiens, UniProt P23458); cell-free assay: remaining binding read 76%.
ALK tyrosine kinase receptor (ALK, Homo sapiens, UniProt Q9UM73, L1196M); cell-free assay — remaining binding: 97%.
It gave 100% for remaining binding (Mast/stem cell growth factor receptor Kit, autoinhibited (KIT, Homo sapiens, UniProt P10721); cell-free assay).
The remaining binding was 97% (Tyrosine-protein kinase ITK/TSK (ITK, Homo sapiens, UniProt Q08881); cell-free assay).
Cyclin-dependent kinase 18 (CDK18, Homo sapiens, UniProt Q07002); cell-free assay — remaining binding: 100%.
For Tyrosine-protein kinase ABL1, phosphorylated (ABL1, Homo sapiens, UniProt P00519, E255K); binding: remaining binding read 100%.
It gave 79% for remaining binding (Serine/threonine-protein kinase OSR1 (OXSR1, Homo sapiens, UniProt O95747); cell-free assay).
For Mitogen-activated protein kinase 8 (MAPK8, Homo sapiens, UniProt P45983); cell-free assay: remaining binding read 63%.
For Serine/threonine-protein kinase Nek2 (NEK2, Homo sapiens, UniProt P51955); cell-free assay: remaining binding read 100%.
It gave 100% for remaining binding (Serine/threonine-protein kinase RIO1 (RIOK1, Homo sapiens, UniProt Q9BRS2); cell-free assay).
Tyrosine-protein kinase Lck (LCK, Homo sapiens, UniProt P06239); cell-free assay — remaining binding: 100%.
For NUAK family SNF1-like kinase 2 (NUAK2, Homo sapiens, UniProt Q9H093); cell-free assay: remaining binding read 89%.
For Calcium/calmodulin-dependent protein kinase type 1G (CAMK1G, Homo sapiens, UniProt Q96NX5); cell-free assay: remaining binding read 100%.
It gave 67% for remaining binding (Mitogen-activated protein kinase 9 (MAPK9, Homo sapiens, UniProt P45984); cell-free assay).
The remaining binding was 100% (Serine/threonine-protein kinase Nek1 (NEK1, Homo sapiens, UniProt Q96PY6); cell-free assay).
Serine/threonine-protein kinase TAO2 (TAOK2, Homo sapiens, UniProt Q9UL54); cell-free assay — remaining binding: 97%.
Proto-oncogene tyrosine-protein kinase receptor Ret (RET, Homo sapiens, UniProt P07949); cell-free assay — remaining binding: 93%.
For Atypical kinase COQ8A, mitochondrial (COQ8A, Homo sapiens, UniProt Q8NI60); cell-free assay: remaining binding read 100%.
For Serine/threonine-protein kinase mTOR (MTOR, Homo sapiens, UniProt P42345); cell-free assay: remaining binding read 100%.
For Tyrosine-protein kinase ABL1, non-phosphorylated (ABL1, Homo sapiens, UniProt P00519, F317I); binding: remaining binding read 76%.
It gave 92% for remaining binding (Interleukin-1 receptor-associated kinase 1 (IRAK1, Homo sapiens, UniProt P51617); cell-free assay).
The remaining binding was 94% (Receptor-type tyrosine-protein kinase FLT3 (FLT3, Homo sapiens, UniProt P36888, F691L/ITD); cell-free assay).
For Casein kinase I isoform gamma-3 (CSNK1G3, Homo sapiens, UniProt Q9Y6M4); cell-free assay: remaining binding read 100%.
For Ribosomal protein S6 kinase alpha-6, N-terminal kinase domain (RPS6KA6, Homo sapiens, UniProt Q9UK32); cell-free assay: remaining binding read 76%.
